Measured values collected from several papers.
Several values in a cell are separate wells, animals, samples, runs or records. ± marks the error that the study gave.

Structure (SMILES)	test	system	conditions	endpoint	value
O=C(c1ccc(F)cc1)C1CCN(C2Cc3c(cccc3OCC[18F])CC2O)CC1 (single isomer, unassigned; (-))	–	Sprague-Dawley rat, male, spleen	intravenous, dose not given, 30 min	tissue uptake	0.685 ± 0.082 %ID/g
O=c1cc(-c2ccccc2)oc2c(Br)c(O)c(O)c(O)c12	–	C57BL/6 mouse, plasma	intravenous, 10 mg/kg	time of rapid decline	≤ 2 h
COc1cc(NC(=O)C(=O)c2c(C)n(Cc3ccc(Cl)cc3)c3ccc(C)cc23)ccn1	–	cynomolgus monkey, male, plasma	intravenous, 1 mg/kg	CL	9.61 mL/min/kg and 5.91 mL/min/kg and 6.84 mL/min/kg and 6.93 mL/min/kg and 7.96 mL/min/kg
COC(=O)C[C@](O)(CCCC(C)(C)OC(C)=O)C(=O)O[C@@H]1C(OC)=C[C@]23CCCN2CCc2cc4c(cc2[C@H]13)OCO4	–	CD1 mouse, lung	oral, 1 mg/kg, 0.5 h	tissue concentration	641 ng/mL
CSCC[C@H](NC(=O)CNC(=O)[C@H](CCCCN)NC(=O)[C@H](CC(C)C)NC(=O)[C@@H]1CCCN1C(=O)[C@H](CO)NC(=O)[C@H](Cc1c[nH]cn1)NC(=O)[C@H](Cc1c[nH]c2ccccc12)NC(=O)[C@H](CCCNC(=N)N)NC(=O)[C@H](CC(C)C)NC(=O)[C@H](CCCNC(=N)N)NC(=O)[C@H](Cc1c[nH]c2ccccc12)NC(=O)[C@H](CS)NC(=O)CCCCCNC(=O)CN1CCN(CC(=O)O)CCN(CC(=O)O)CCN(CC(=O)O)CC1)C(=O)O [copper-64 labelled]	–	BALB/c nude mice, Huh-7 xenograft, tumour	intravenous, 1.85 MBq, 6 h	tumour uptake	6.89 %ID/g
CCCCCCCCCCCCC(=O)O.O=C1CCCC2C3CCCN4CCCC(CN12)C34 (centres unmarked)	electrical conductivity	water	313.15 K, critical micelle concentration	standard entropy of micellization	109 J/(mol·K)
O=C(O)CCC(NP(=O)(O)OCCC[C@@H](NC(=O)CCC(NC(=O)c1ccc([18F])cc1)C(=O)O)C(=O)O)C(=O)O (some centres unmarked)	radioactivity biodistribution	mouse, PC-3 xenograft, tumour, blood	2 h	tumour/blood ratio	5.42 ± 1.43
[2H]C([2H])([2H])C([2H])([2H])C([2H])([2H])OC(C(=O)OC1CCNCC1)(c1ccccc1)c1ccccc1	item: diarrhea	healthy Japanese male	oral, 10 mg, 16 days, multiple ascending dose	adverse drug reactions	0%
CCNc1cc2[o+]c3cc(NCC)c(C)cc3c(-c3ccccc3C(=O)OCCOCC[18F])c2cc1C	–	rat, spleen	30 min	tissue uptake	2.01 ± 0.17 %ID/g
CCOP(=O)(OCC)OCCCCOC(=O)CC1=C(C)C(=Cc2ccc([S+](C)[O-])cc2)c2ccc(F)cc21 (centres unmarked)	HPLC	mouse, lung tissue	inhalation, dose not given, 8 min exposure	AUC(0-24h)	7.7 nmol·h/g
COc1cc2c3c(c4ccc(O)c(OC)c4c2cc1OC)C(O)C1CCCN1C3 (centres unmarked)	–	swine cells	24 (unit not given)	CC50	59.9 ± 2.79 µM

Excerpt of the above:
Structure (SMILES)	test	system	conditions	endpoint	value
O=c1cc(-c2ccccc2)oc2c(Br)c(O)c(O)c(O)c12	–	C57BL/6 mouse, plasma	intravenous, 10 mg/kg	time of rapid decline	≤ 2 h
